# Measured values gathered from unrelated publications.
# A part holds a random share of what one study measured.
# Chain of UniProt P14921 (whole entry, looked up): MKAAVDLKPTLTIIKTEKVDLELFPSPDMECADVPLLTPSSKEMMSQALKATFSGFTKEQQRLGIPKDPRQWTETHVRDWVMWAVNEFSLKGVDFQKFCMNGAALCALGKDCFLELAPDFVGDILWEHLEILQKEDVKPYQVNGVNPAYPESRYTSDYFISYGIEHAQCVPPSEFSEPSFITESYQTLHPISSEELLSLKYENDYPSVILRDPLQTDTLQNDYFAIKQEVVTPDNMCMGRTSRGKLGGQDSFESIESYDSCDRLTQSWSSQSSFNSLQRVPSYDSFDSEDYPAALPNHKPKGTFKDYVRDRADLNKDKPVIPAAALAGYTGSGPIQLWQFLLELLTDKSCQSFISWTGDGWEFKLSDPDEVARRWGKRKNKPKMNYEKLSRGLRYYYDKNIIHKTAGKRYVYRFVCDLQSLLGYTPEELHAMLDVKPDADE

# Sample 1
# Organism: Vesicular stomatitis virus
# Read-out: pseudovirus infection
# Method: FDA-approved drug library screen
# Concentration: concentration not given
# Setting: SARS-CoV-2 spike pseudotype
# Baseline: vehicle
Compound,GFP-positive cells
CN[C@H]1C(=O)N[C@@H]2Cc3ccc(cc3)Oc3cc4cc(c3O[C@@H]3O[C@H](C(=O)O)[C@@H](O)[C@H](O)[C@H]3NC(=O)CCCCCCCCC(C)C)Oc3ccc(cc3Cl)[C@@H](O)[C@@H]3NC(=O)[C@H](NC(=O)[C@@H]4NC(=O)[C@@H](NC2=O)c2cc(cc(O)c2Cl)Oc2cc1ccc2O)c1ccc(O)c(c1)-c1c(O[C@H]2O[C@H](CO)[C@@H](O)[C@H](O)[C@@H]2O)cc(O)cc1[C@@H](C(=O)O)NC3=O,27.5%
NC(=O)N/N=C/c1ccc([N+](=O)[O-])o1,89.7%
O=C([O-])[C@H](O)[C@@H](O)[C@H](O)[C@H](O)CO.[Na+],122%
O=C([O-])c1ccccc1[O-].[Bi+3].[OH-],73.1%
CCO.C[C@H]1c2cccc(O)c2C(O)=C2C(=O)[C@]3(O)C(O)=C(C(N)=O)C(=O)[C@@H](N(C)C)[C@@H]3[C@@H](O)[C@@H]21.C[C@H]1c2cccc(O)c2C(O)=C2C(=O)[C@]3(O)C(O)=C(C(N)=O)C(=O)[C@@H](N(C)C)[C@@H]3[C@@H](O)[C@@H]21.Cl.Cl.O,88.2%

# Sample 2
# Target: Interferon regulatory factor 3, full length, phosphomimetic (IRF3, Homo sapiens, UniProt Q14653, residues 1-427, S386D/S396D/S398D/S402D/T404D/S405D)
# Chain of UniProt Q14653 (whole entry, unmodified, looked up): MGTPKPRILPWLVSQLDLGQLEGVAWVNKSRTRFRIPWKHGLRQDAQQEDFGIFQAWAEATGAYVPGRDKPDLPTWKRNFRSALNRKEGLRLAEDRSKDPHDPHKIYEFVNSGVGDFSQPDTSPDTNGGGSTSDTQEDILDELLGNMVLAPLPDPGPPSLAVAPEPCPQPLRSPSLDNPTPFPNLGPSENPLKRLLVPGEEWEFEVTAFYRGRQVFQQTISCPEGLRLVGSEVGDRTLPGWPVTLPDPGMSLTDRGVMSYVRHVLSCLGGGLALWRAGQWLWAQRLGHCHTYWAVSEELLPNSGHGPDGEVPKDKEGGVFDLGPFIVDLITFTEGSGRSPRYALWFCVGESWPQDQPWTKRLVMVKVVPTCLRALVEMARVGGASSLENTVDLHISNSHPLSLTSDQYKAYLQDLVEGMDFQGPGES
# Method: protein-binding microarray
# Molecule type: double-stranded DNA, one strand shown
# Sample: in vitro
# Concentration: 2540 nM top
# Setting: 60-bp whole probe
# Together with: salmon DNA 0.4 mg/ml
# Baseline: random background probes
# Reading: higher = stronger binding
# All sequences stand within: GCCTAGCAC … GTCTTGATTCGCTTGACGCTGCTG
Sequence,fitted relative affinity [z-score]
TGAGGACTGCTTATCCTTTAGTGCTAG,-0.237
TTAGATCTCAGTCTCGTTTAGTGCTAG,0.776
TCCCCTCTCTTTCCAACTCTGTGCTAG,2.23
GACGGACTGCTACTGCTGAGGTGCTAG,-0.839
TTAGATTTGAGACTGGATTAGTGCTAG,-0.233
TCAAGTTTTCCTATGTCACTGTGCTAG,1.61
TCAGTTCTCAGACTGGGACTGTGCTAG,1.48
TTAGTTTTCGACTATCGGTTAGTGCTA,2.68

# Sample 3
# Target: Replicase polyprotein 1ab, main protease (rep, Severe acute respiratory syndrome coronavirus 2, UniProt P0DTD1)
# Read-out: enzyme activity
# Mode: inhibitor
SMILES,IC50 [µM]
COc1cc(-c2ccc(/N=N/c3ccc4c(S(=O)(=O)O)cc(S(=O)(=O)O)c(N)c4c3O)c(OC)c2)ccc1/N=N/c1ccc2c(S(=O)(=O)O)cc(S(=O)(=O)O)c(N)c2c1O,3.34
CC(C)(C)OC(=O)NCCc1nnc(S(=O)(=O)Cc2ccc(Cl)cc2Cl)o1,7.55
CN1CCN(C(=O)c2ccc(-c3ccc4c(C=O)c(O)ccc4c3)s2)CC1,> 20

# Sample 4
# Target: Replicase polyprotein 1ab, nsp13 helicase (rep, Severe acute respiratory syndrome coronavirus 2, UniProt P0DTD1)
# Mode: inhibitor
# Concentration: 20 µM
Structure (SMILES),inhibition
c1ccc(C2CC2)c(OCC2=NCCN2)c1,1.53%
O=C1NCCNC1c1cccs1 (centres unmarked),-1.71%
O=C(NC[C@H](O)CO)c1ccncc1Nc1ccc(I)cc1F,1.31%
NC(=O)c1noc([C@H](CCCC2CCCCC2)CC(=O)NO)n1,7.1%
CC(=O)NC1CCSC1=O (centres unmarked),-1.72%
CS(=O)(=O)Nc1ccc2oc3c(OC(F)F)ccc(C(=O)Nc4c(Cl)cncc4Cl)c3c2c1,8.29%
Cc1cc([N+](=O)[O-])ccc1NS(=O)(=O)c1cc(Cl)ccc1Cl,7.66%
Cc1cc(CCCOc2c(C)cc(-c3noc(C(F)(F)F)n3)cc2C)on1,4.76%
N=C(N)Nc1ccc(C(=O)Oc2ccc3cc(C(=N)N)ccc3c2)cc1,15.8%
Cc1cc(-c2nncc3c(C(C)(C)C)c(OCc4ncnn4C)nn23)no1,-2.74%
CC(=O)Nc1ccc(S(=O)(=O)Nc2ccc([N+](=O)[O-])cc2)cc1,2.37%
COC(=O)c1cnn(-c2ccc(F)cc2F)c1/C=N/NC(=S)NC(C)(C)C,-2.55%
C[C@H]1O[C@@H](O[C@H]2[C@@H](O)C[C@H](O[C@H]3[C@@H](O)C[C@H](O[C@H]4CC[C@@]5(C)[C@H](CC[C@@H]6[C@@H]5C[C@@H](O)[C@]5(C)[C@@H](C7=CC(=O)OC7)CC[C@]65O)C4)O[C@@H]3C)O[C@@H]2C)C[C@H](O)[C@@H]1O,7.31%
CCn1c(N)c(C(=O)NC)c(=O)c2ccc(C#C[C@@](C)(O)COC)nc21,99.9%
C[N+](C)(C)CCCCCC[N+](C)(C)C,4.22%
Cc1ccc(S(=O)(=O)Nc2ccc3c(c2)c(C(=O)C(F)(F)F)cn3CC(=O)N[C@@H](CC(C)C)C(=O)O)cc1,3.62%
CC(C)C[C@H](NC(=O)[C@@H](O)[C@H](N)Cc1ccccc1)C(=O)O,-1.55%
CCC1=C[C@@H]2CN3CCc4c([nH]c5ccccc45)[C@@](C(=O)OC)(C2)[C@@H]13,5.21%
Nc1nc2c(c(=O)[nH]1)C[C@@H](CCc1ccc(C(=O)N[C@@H](CCC(=O)O)C(=O)O)cc1)CN2,3.7%
NNCCc1ccccc1,0.01%
OC(CN1CCN(c2cccc(Cl)c2)CC1)C(c1ccccc1)c1ccccc1 (centres unmarked),-5.17%
CC(N)[C@]12C[C@H]3C[C@H](C[C@H](C3)C1)C2 (some centres unmarked),5.05%
OC(c1ccc(-c2ccc(CN3CCN(Cc4ccncc4)CC3)cc2)c(F)c1)(C(F)(F)F)C(F)(F)F,7.66%
CC(=O)N(O)[C@@H]1c2cc(C#N)ccc2OC(C)(C)[C@H]1O,0.28%
CCC(=O)c1ccc(OCC(O)CN2CCN(c3ccccc3)CC2)cc1 (centres unmarked),2.28%

# Sample 5
# Target: RNA binding protein fox-1 homolog 2, RRM domain, GST-SBP tag (RBFOX2, Homo sapiens, UniProt O43251-10, residues 100-194)
# Method: RNA Bind-n-Seq
# Molecule type: RNA
# Sample: in vitro
# Concentration: 365 nM
# Setting: natural RNA segment, single round, ends assumed
# Baseline: no-protein control
# Reading: higher = stronger binding
# All sequences stand within: GGGAGUUCUACAGUCCGACGAUC … UGGAAUUCUCGGGUGCCAA
# Construct (chain): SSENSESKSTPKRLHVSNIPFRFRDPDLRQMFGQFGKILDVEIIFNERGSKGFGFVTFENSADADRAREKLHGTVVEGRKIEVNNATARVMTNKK
Sequence,RBNS enrichment (R)
GCAAGAAAUGUGGAAAUCUGUCUGCUUGUUUACAUGGCCCGACAACACCACCUAGGCGCACGCGAGCAGAAGCCCUCUCUGUAUUACCGCUCCCUACGCAACAUACUUGA,0.765
AGCUCGCGGUGGAAGCCCUGUCCAGCCUGGACGGCGACCUGGCGGGCCGAUACUACGCGCUCAAGAGCAUGACGGAGGCGGAGCAGCAGCAGCUCAUCGACGACCACUUC,1.78
CUAAGAGAUAAGAAGGCUGCAAGGAUUGGGGAUAAGGAGUAUAUUUUCAAGCCAAGAACCAGUAGAAAACAGAAAUAAUGGUGCUCCCAAAUAUUCAGUACCUUGGGCAA,0.542
AGCUUAAGCCUGUUGCUAAGAAAUUUAAUUUCUUAGCAACUUGUAAUUUAGUUAUCAAUUCAAUAUAGCUCUGUUGAUUAAAUAGCCGAUAGUAUUGUGGCUCUCCUCUU,0.199
CUACAGAAAGGAAGACAGCUUGGCCCAGCGGGCUGAAGUUCAGAAUUCACUAGGUAGUUGUUGUUGGUUGACUUGGAGGUAGCUGGGUAAUCAACAGCUUUCACUUUAGA,0.459
GCUUUUUUUUUUUAAAGUAAGAAUAGCUUGUUAGUAUAUCAAUGUUCAUGGCUAAUGUUAUCUCAUUUUGUUAGUCGUUAUUUUGGAAUUACAUGAUGUGUGAUUUAGGG,0.499
GAUGUAGGGUUUAUUGAAAAUGUGUGGGUUAAAUGCUUUCAGGUACACCAAUUCUUUCUACUAAAUUGAGCUCUAUUUGAAGUUCUUUGGAAUCUGUGGUGAAAAAUAAU,0.678
GAAUAAGGUGUCACCUCCCUGAAAUUGCAUAUAUGUAUAUAGACAUGCACACGUGUGCAUUUGUUUGUAUACAUAUAUUUGUCCUUCGUAUAGCAAGUUUUUUGCUCAUC,0.332

# Mixed results
# Method: protein-binding microarray
# Molecule type: hairpin DNA
# Sample: in vitro
# Concentration: not given
# Setting: whole hairpin DNA, median over replicate spots
# Baseline: not given
# Reading: higher = stronger binding
# ATF1 full length: Cyclic AMP-dependent transcription factor ATF-1, full length (ATF1, Homo sapiens, UniProt P18846, residues 1-271)
# Chain of UniProt P18846 (whole entry, looked up): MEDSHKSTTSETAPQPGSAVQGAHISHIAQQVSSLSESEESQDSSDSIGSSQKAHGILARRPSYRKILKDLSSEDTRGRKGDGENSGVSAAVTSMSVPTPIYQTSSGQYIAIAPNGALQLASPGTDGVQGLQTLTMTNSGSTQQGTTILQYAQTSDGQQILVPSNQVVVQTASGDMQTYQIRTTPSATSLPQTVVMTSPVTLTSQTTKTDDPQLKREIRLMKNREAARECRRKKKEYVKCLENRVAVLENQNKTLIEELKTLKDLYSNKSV
Sequence,target,median fluorescence
CGGACCGGCCCGGGCATGTCTCCTGACATGCCCGGGCCGGTCCGACACTC (5mC at 6),"Cellular tumor antigen p53, full length (TP53, Homo sapiens, UniProt P04637, residues 1-393)",11100 a.u.
GAGGCCGGCGGACGTCAGCCTCCTGGCTGACGTCCGCCGGCCTCACACTC (5mC at 9),ATF1 full length,5210 a.u.
GAGGCCAGTCGGAAGTTGCCTCCTGGCAACTTCCGACTGGCCTCACACTC,"Protein C-ets-1, full length (ETS1, Homo sapiens, UniProt P14921, residues 1-441)",3370 a.u.
GAGGCCGACGACGTCGTGCCTCCTGGCACGACGTCGTCGGCCTCACACTC (5mC at 9 15 29),ATF1 full length,6140 a.u.

# Excerpt of the above (sample 4):
Structure (SMILES),inhibition
C[C@H]1O[C@@H](O[C@H]2[C@@H](O)C[C@H](O[C@H]3[C@@H](O)C[C@H](O[C@H]4CC[C@@]5(C)[C@H](CC[C@@H]6[C@@H]5C[C@@H](O)[C@]5(C)[C@@H](C7=CC(=O)OC7)CC[C@]65O)C4)O[C@@H]3C)O[C@@H]2C)C[C@H](O)[C@@H]1O,7.31%
CCn1c(N)c(C(=O)NC)c(=O)c2ccc(C#C[C@@](C)(O)COC)nc21,99.9%
C[N+](C)(C)CCCCCC[N+](C)(C)C,4.22%
Cc1ccc(S(=O)(=O)Nc2ccc3c(c2)c(C(=O)C(F)(F)F)cn3CC(=O)N[C@@H](CC(C)C)C(=O)O)cc1,3.62%
CC(C)C[C@H](NC(=O)[C@@H](O)[C@H](N)Cc1ccccc1)C(=O)O,-1.55%
CCC1=C[C@@H]2CN3CCc4c([nH]c5ccccc45)[C@@](C(=O)OC)(C2)[C@@H]13,5.21%
Nc1nc2c(c(=O)[nH]1)C[C@@H](CCc1ccc(C(=O)N[C@@H](CCC(=O)O)C(=O)O)cc1)CN2,3.7%
